Measurements pooled from the literature.
Parts stem from different laboratories: compare values within a part only. Positions count from the first letter of the parent shown.

Sample 1
Target: PABPC1L2, full length, GST fusion (mouse, UniProt A0ABA7IW68)
Method: RNAcompete
Form: RNA
Medium: in vitro
Tested at: 20 nM
Notes: 7-mer, probes averaged, single round
Reference: mean of 7-mers
Direction: higher = stronger binding
Measurement: 7-mer Z-score
Construct (chain): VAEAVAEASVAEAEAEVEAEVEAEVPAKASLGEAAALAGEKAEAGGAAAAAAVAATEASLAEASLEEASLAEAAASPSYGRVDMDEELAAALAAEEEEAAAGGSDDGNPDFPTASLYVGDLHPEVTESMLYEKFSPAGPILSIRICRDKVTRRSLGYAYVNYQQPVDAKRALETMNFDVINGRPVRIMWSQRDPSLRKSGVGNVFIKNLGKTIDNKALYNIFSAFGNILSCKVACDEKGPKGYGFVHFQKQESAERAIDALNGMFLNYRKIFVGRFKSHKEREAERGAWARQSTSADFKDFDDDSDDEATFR
CUUAUAU: -0.242
CGAGUUU: -0.356
CUAGACU: -0.19
UAAUCUA: -0.0917
GUACGCC: -0.199
CGAAUCU: -0.217
UCACCUA: -0.233
GCUGUAU: -0.213
CGAAUGA: -0.0156
CUAGGAG: 0.0913
CCGGUUA: -0.269
AAGGGUG: 0.419
GACUCUA: -0.209
GCCGCUC: -0.409
CAUGGAG: 0.0587
GGACAAU: 0.167
GGAUCAA: 0.419
CAUCUUA: -0.324
UCCGCAG: -0.296
CACAACA: 0.0388
UGUCAGU: -0.273
CACGGUG: -0.021
GCGGUCA: 0.0859
CUACGUU: -0.128
CGCCGAC: -0.282

Sample 2
Target: RNA binding protein fox-1 homolog 2, RRM domain, GST-SBP tag (RBFOX2, Homo sapiens, UniProt O43251-10, residues 100-194)
Method: RNA Bind-n-Seq
Form: RNA
Medium: in vitro
Tested at: 365 nM
Notes: natural RNA segment, single round, ends assumed
Reference: no-protein control
Direction: higher = stronger binding
Measurement: RBNS enrichment (R)
All sequences stand within: GGGAGUUCUACAGUCCGACGAUC … UGGAAUUCUCGGGUGCCAA
Residues (chain): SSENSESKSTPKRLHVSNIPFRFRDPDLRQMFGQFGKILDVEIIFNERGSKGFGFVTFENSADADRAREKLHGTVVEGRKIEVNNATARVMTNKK
CCAGAUCCAUGGCAAUGGUCUCCCCACAGACCGCAGGACUGAGCCUGGAGAGAGAAGUUGCUUGACGGAUGCCACUUGUCAGGACAGUAUGUGAGUGUCUGGAGACAGCA: 3
UUUUCUUACCUGCUUCAAGCCGAGAUCUGAAAGCUUUGUGGAAGAUGAUCAAGCAAAGCUCCCAAGCCAAAGGGUAGCAGAGGGUGGCUACGUGGUUUUUAGGUAGAUGU: 1.5
UUCUCCCUUUUUCUGACAGUGUGGUUCAGCUCCUGUUUCAGAUUCUGUGUCAUUUUUCAAUUUACAAGUCACUUAAGUUUCUACCUGGAAUGUCAGGUGGCAAUGACAUC: 0.507
UGUGUGUGGAGGAUUUACAGCUAAGCUGUAGUUGCAGAGUACAUGUACAGUAAUGAAGUUCACUGUGUUUAUAAAUUGAAAAGGUACCAGGUCUUACAGCAUUUUAUAUA: 0.578
UUUCAAUAACAAAAUAUCGUAAGUAGAAUGCUUUUGUGCCUUUGGAUACAAGAUUAAUCUUUAGAAAUUUUGAAUUUUCUACUUGAGAUAUAAAAAUUCAGUAAAAUGUA: 0.843
UGGAGUAUUAACAACCAGAAAGAAAGUUUGGAUAUUACCUUUUAACUACUAGUUAACAUCAUGCUUGAUCAACAUUUGCUCCUAGUUAUCACCAUUAAAUUAAGACCUUA: 0.414
CUUGCUCUACUUGAAAUUAAUUGUGAGCAUAAGCUUGUUUCUGGAGUCUUCUUACAUUGUUGGUUCUACUUACAUACUACUGGUCCAACUCUCAUGCUGUUUCUCUCAGA: 0.486
CCUGUUAGAGUUGCUUCUCCUCUAGUUUGUAACUUACUGGACUUUUGUGGAAAAUAUCAGCGUCGCUACCCUCAGAAACAAACUAACAGCACACGUUAGGAGGAGUCCUC: 0.455
UUCCAGUGAAUGUUUGACCUAGGGAAUGCAGCCACACUGGAAGCACCAAUAGAGGGCUAAGGUCAGACGGAGCAUGGCCCCACGAGCCCCAGAUUCCCUGAAAAUCCUGA: 6.21
GCAUUGAAUACUCCAUCCCCUUCCCGCCCAGUGAAUGGAAUGAGAAAAGCCUUCUUCCUUUGCUUCAGGCAGCUGUCCCCUUCUCUUCCUUGGUGAUCCUGAGUGGGUCA: 0.465
UUCCCUGGAUCUUCCCCCCACUCCUCACACCUCACAUGUCCCAGGAGCUGCCUUCAUUCAGGCGGGUAGCUGCACUGGGCAUGGGGUGGUGGUGGGAGCUUACCGCCACC: 0.283
UUAAAAGAGGGAGGUGUGGUAUAUUAAAAUGAUUUUACUAAGAGAAAAAAAAUAUUUUUUUAAGGAUGCUCAGAAGAAAUUGAUAAUCUGUGUGAAUAUGUUUUAGAUGU: 2.52

Sample 3
Target: Interferon regulatory factor 7, full length, phosphomimetic (IRF7, Homo sapiens, UniProt Q92985, residues 1-503, S101K/S471D/S472D/S475D/S476D/S477D/S483D/S484D/S487D)
Method: protein-binding microarray
Form: double-stranded DNA, one strand shown
Medium: in vitro
Tested at: 250 nM
Notes: 60-bp whole probe
Added: salmon DNA 0.4 mg/ml
Reference: random background probes
Direction: higher = stronger binding
Measurement: log fluorescence
All sequences stand within: GCCTAGCAC … GTCTTGATTCGCTTGACGCTGCTG
Target sequence (chain): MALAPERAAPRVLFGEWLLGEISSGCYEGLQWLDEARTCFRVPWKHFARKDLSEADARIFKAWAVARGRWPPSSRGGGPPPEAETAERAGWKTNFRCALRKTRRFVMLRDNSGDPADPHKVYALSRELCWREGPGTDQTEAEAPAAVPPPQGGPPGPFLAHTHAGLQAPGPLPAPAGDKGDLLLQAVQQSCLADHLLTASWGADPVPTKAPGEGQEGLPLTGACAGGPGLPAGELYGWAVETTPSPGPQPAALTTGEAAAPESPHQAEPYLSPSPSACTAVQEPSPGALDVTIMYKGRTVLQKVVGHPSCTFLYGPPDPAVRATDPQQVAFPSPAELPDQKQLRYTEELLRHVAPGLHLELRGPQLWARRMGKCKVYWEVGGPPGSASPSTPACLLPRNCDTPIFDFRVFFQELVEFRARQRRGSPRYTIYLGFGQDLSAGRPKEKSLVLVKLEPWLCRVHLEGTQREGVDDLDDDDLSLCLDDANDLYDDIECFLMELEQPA
TTATATATCGGGTATCGATTAGTGCTA: 0.966 z-score
TCAGGTCTGTTTCTGATACTGTGCTAG: 0.834 z-score
GACGTTTTCGGGTTTCGAGACGTGCTA: 6.38 z-score
GACGACTTCAGTATCGAGACGTGCTAG: 0.108 z-score
GACGGTCTCCTTGTCCTGACGTGCTAG: -0.318 z-score
TCAGTTCCTTATTTAAGACTGTGCTAG: 2.39 z-score
CTGTGTACATCTCTCTTAAAGTGCTAG: -0.0781 z-score
TCATTTTTTTTTTCTGAACTGTGCTAG: 1.24 z-score
TTAGATCTCAGTCTCGATGAGTGCTAG: 0.265 z-score
TTAGGTAGCGGGACTGGGTTAGTGCTA: -0.736 z-score
GACGGACTGGAATTTCGGGACGTGCTA: -0.0955 z-score
TTTGATCTCAGTATCGATTAGTGCTAG: 0.942 z-score
TTAGAACTGGGGTATCGATGAGTGCTA: -0.558 z-score
TCCCCTCTAGGTCTTCTGAAGTGCTAG: -0.256 z-score
TCATTTAGAAATTTCTTACTGTGCTAG: 1.63 z-score
TGTTGGTAATTTTGCTATTTGTGCTAG: 0.0322 z-score
TCAACTTGTCTTTTCATACTGTGCTAG: 0.156 z-score
GACGGACTGGGGTTTCAGGACGTGCTA: -0.921 z-score
GACGATCTCAGCTTCGAGACGTGCTAG: -0.122 z-score
GACAGTTCCCTTTTCCTGACGTGCTAG: 2.82 z-score
GGCGGTATCCTTATCCTGACGTGCTAG: -0.187 z-score
TTAGCTATCGGTTTCGGTTAGTGCTAG: 7.61 z-score
GACGGTTCCGGGTATCGGGACGTGCTA: 1.1 z-score
TTAGATTTCAGTCTCTATTAGTGCTAG: 1.08 z-score
TTAGAACTCAGTTTCGATTAGTGCTAG: 8.83 z-score

Sample 4
Target: BATF3, bZIP domain (human)
Method: DHFR protein complementation
Medium: yeast
Notes: single substitutions, most at no-binding floor
Reference: wild-type JUN-FOS pair
Direction: higher = stronger binding
Measurement: binding fitness
Parent: JUN, bZIP domain (human); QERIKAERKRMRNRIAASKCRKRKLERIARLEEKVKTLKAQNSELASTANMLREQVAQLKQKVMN; partner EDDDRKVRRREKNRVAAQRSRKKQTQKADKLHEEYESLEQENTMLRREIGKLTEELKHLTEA
L52V: -0.0202 natural log
N42F: -0.249 natural log
A46V: 0.193 natural log
L52S: -0.972 natural log
A46L: 0.209 natural log
L31A: 0.203 natural log
T37Q: 0.361 natural log
L31K: 0.17 natural log
K36I: 0.192 natural log
S47A: 0.221 natural log
Q55T: 0.0635 natural log
I28L: 0.243 natural log
A40T: 0.306 natural log
A46M: 0.267 natural log
L38S: 0.11 natural log
S43G: 0.253 natural log
V56C: 0.102 natural log
